Published values gathered from unrelated publications.
Parts stem from different laboratories: compare values within a part only. Changes are numbered by the printed parent chain.

Set 1 — technique: EMSA with sequencing; molecule type: double-stranded DNA, one strand shown; medium: in vitro; tested at: 10 and 20 nM; relative to: negative control set to 0; direction: higher = stronger binding
Target: Hepatocyte nuclear factor 3-alpha (Foxa1, Mus musculus, UniProt P35582, residues 1-468, full length assumed)
UniProt P35582, sequence (whole entry, looked up): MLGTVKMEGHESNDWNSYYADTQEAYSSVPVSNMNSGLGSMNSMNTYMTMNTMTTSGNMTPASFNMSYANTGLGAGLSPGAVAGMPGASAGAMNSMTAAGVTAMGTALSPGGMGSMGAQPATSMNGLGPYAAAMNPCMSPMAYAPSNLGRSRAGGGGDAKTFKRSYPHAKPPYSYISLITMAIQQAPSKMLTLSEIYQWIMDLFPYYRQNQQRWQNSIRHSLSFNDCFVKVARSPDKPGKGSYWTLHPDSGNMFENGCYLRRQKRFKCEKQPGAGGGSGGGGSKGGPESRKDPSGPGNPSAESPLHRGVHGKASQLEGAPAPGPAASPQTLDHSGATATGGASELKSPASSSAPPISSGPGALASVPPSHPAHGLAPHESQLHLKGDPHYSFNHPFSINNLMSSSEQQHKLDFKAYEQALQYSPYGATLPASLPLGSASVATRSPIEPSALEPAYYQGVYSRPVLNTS
Setting: whole designed probe, mean of two concentrations, ends assumed
Oligonucleotide | normalised bound fraction [ratio]
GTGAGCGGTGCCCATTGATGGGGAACTAAAAGCTGGTGAAATCTGAATAAGGTCTGTACCTGAGTTAAGAGGACTGTATCAATGACCATTTCCTGGTTTTGACAGTGTACTGTGGTTATGTAAATATGGTTATGTGTATGTATCACTGGGGAAGCTGGGGAAGCATACATGGGAACTTTATGACTGTGCAACGTCTTGTGAGTCAACTACCTCAAATTATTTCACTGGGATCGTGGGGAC | 0.362
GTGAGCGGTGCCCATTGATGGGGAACTATATCTAACACTGAAATTTTATTTTTTTAAATTTTTTTCTCCTACTTTCAAGCTAACAAGTTATATTTTATTTTTTAAAATAACCTGACTATGTTTACTTTGGAAAACCCTACTAAAAACCTTTCAACAACCCCACCCTACTCTCTATCTTCTCCAGATTTTGCATGTTAAATTTCTAGGACCTTGTAATCTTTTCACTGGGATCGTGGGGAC | 0.33
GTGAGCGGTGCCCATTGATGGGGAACACACAGAAACCCTTTGGTAACATGAGCTGTGTTTCCTTGTTAAATTGACCCTGCTGTCTGACACCCTCTGTTGCTACTGTTACATCACAGCTAGGTCATCTTCCAGATTCCTTTACCAACTATGTGAGAATCTACTAAAAGCATTCTCTAATAATACAGTCAGCCCTGGGAAAGACATCTGAGCTTTAATTAATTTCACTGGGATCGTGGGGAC | -0.0498
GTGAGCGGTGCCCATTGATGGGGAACATGTGGGAACTAATTGAGGACCATGTTTACAATGCGTACAAATCATAAATCAATTAGTTCATATTGACAAGGAAGAAATTTACAAAAAGTATTTGTTTACATTGATACTGTCCATGTAAACTTTTTTCAATTCAAAAGAAACACATAGTTCTGTCATAAAGTAGATTTTCTATCCCTTTTATTTTCTGAGCTTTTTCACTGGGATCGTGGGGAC | 0.45
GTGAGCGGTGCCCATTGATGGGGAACGTGTCAAATAGTGATAAGATTGACAACATCTGGAGAAAATATTTAGGAATATGACATTTATATTTTTAACAAAAGTGCAATGCTATTGCAATGTAATCTGCAAGCAGTTGGGAAAATGGCCCTGAGTATTGCTATTATTTCTCTTACTTAAAATAAAATGTGAACTTTTATGGTGAAGTGTTTTCATTGCACATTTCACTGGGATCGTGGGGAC | -0.0437

Set 2 — technique: universal PBM; molecule type: double-stranded DNA, one strand shown; medium: in vitro; tested at: 600 nM; direction: higher = stronger binding
Target: Sal-like protein 4, full length isoform A (SALL4, Homo sapiens, UniProt Q9UJQ4, residues 1-1053)
UniProt Q9UJQ4, sequence (whole entry, looked up): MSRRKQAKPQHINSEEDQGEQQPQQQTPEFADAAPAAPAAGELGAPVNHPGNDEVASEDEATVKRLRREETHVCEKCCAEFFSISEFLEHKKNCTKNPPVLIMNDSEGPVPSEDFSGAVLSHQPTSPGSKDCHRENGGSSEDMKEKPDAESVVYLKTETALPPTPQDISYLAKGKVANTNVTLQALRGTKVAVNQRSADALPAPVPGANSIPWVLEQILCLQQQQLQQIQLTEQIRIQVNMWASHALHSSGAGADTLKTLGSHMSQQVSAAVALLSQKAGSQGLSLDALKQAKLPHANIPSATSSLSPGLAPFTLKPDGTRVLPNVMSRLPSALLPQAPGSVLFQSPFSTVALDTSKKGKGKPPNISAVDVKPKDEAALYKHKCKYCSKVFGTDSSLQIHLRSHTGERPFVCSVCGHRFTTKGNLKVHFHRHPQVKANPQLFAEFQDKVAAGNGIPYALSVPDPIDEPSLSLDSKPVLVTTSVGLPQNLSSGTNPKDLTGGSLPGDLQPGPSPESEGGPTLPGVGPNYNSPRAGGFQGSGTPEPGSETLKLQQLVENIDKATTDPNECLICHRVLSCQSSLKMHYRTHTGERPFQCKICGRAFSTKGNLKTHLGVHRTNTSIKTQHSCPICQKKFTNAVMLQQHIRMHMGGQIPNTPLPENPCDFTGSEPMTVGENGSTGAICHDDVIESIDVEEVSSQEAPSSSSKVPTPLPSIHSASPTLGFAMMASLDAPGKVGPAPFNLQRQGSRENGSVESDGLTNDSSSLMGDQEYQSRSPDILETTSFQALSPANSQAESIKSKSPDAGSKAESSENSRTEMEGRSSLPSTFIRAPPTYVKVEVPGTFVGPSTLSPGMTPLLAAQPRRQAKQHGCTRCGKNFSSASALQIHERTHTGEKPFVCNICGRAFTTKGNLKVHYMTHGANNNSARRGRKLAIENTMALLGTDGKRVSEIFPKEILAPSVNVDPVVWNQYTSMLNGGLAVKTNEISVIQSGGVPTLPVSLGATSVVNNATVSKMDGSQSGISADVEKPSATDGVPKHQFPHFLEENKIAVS
Setting: 8-mer, flanks averaged, mean of replicates
Oligonucleotide | E-score
GTGTCAAC | -0.106
GATTACGA | 0.167
ACTACTGG | -0.0779
TACGTGGA | 0.0024
ATGGAGCG | -0.0707
GGGTCCGA | -0.362
AAACAATC | 0.241
CCAGATGA | -0.0626
CCTGCCAC | -0.188
ACAAGTTG | 0.0894
AAGGACAG | -0.114
GCACGTCA | -0.0923
CTACTCGC | -0.187
AGTTTGCG | -0.145
ATATCGTG | 0.119
GAAAGTCA | 0.0634
ACTGCCGC | -0.249
ATCAGTGC | -0.0288
CATCCCTA | -0.106
CTGCACGA | -0.124
CCTCCACG | -0.179
AAGCGCCC | -0.309
ATGGCTTG | -0.0536

Set 3 — technique: DHFR PCA, deep sequencing; medium: yeast; together with: (+)-ABA 0.39 µM; relative to: wild-type fitted maximum; direction: higher = stronger binding
Target: ABI1, truncated, D143A, DHFR fusion (Arabidopsis thaliana)
Setting: methotrexate growth selection, single substitutions
Starting sequence: PYL1, truncated, DHFR fusion (Arabidopsis thaliana); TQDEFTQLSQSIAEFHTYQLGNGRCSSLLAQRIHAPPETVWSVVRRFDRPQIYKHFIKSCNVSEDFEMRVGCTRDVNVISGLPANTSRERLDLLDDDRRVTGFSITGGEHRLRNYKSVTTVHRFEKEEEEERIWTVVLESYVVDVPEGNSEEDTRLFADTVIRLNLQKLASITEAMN
Change | relative binding score [%]
Q167R | 61.7
E130M | 32.2
E4K | 12.3
L91G | 1.99
D65N | 45.7
D159I | -22.1
E139M | 0.777
S150T | 64.1
L169A | -11
F157P | 12.5
H55G | 45.2
A84M | 53.4
V136W | 5.01
L94G | -17.7
P36Q | 16.4
I162P | 1.31

Set 4 — target: BATF2, bZIP domain (human); technique: DHFR protein complementation; medium: yeast; relative to: wild-type JUN-FOS pair; direction: higher = stronger binding
Setting: single substitutions, most at no-binding floor
Starting sequence: JUN, bZIP domain (human); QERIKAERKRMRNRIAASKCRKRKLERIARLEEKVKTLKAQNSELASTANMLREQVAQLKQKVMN; partner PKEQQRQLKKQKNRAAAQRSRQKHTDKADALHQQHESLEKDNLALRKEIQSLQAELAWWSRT
Change | binding fitness
A46H | -0.418 natural log
S43F | -0.378 natural log
E32Y | -0.88 natural log
T37A | -0.128 natural log
M51E | -0.255 natural log
E33W | -0.536 natural log
K34Y | -0.699 natural log
S47W | -0.437 natural log
Q41M | -0.362 natural log
L38T | -1.09 natural log
S47A | -0.132 natural log
A29K | -0.436 natural log
Q41R | -0.472 natural log
L45H | -1.25 natural log
Q41P | -1.53 natural log
A40Y | -0.607 natural log
N42W | -1.32 natural log
S43Y | -0.388 natural log
T48D | -0.816 natural log
E32H | -0.739 natural log
I28A | -0.542 natural log
A57V | -0.482 natural log
T48W | -0.489 natural log

Set 5 — target: CCND3, cyclin fold, Cln2 fusion (human); technique: yeast growth competition, sequencing; medium: yeast; setting: weak parent motif; relative to: not given; direction: higher = stronger binding
Starting sequence: ANKRD17 docking peptide (human); PSVRRQLFVTVVK
Change | normalised enrichment score
PSVRRALFVTVVK [Q6A] | 0.0702
PSVRRQLAVTVVK [F8A] | 0.176
ASVRRQLFVTVVK [P1A] | 0.123
PSVRKQLLVTVVK [R5K F8L] | 0.983
PSVRRQLFVTVAK [V12A] | 0.202
PSVRRQLFATVVK [V9A] | 0.113
PSVARQLFVTVVK [R4A] | 0.124

A few entries again (set 3):
Change | relative binding score [%]
E4K | 12.3
L91G | 1.99
D65N | 45.7
D159I | -22.1
E139M | 0.777
S150T | 64.1
L169A | -11
F157P | 12.5
H55G | 45.2
A84M | 53.4
V136W | 5.01
